{"data": "Experimental data from different studies", "note": "Every numbered part comes from another study and shows a few of its results, in no order. Substitutions count along the parent as printed."}
{"data": "Series 1", "target": "CREBRF, bZIP domain (human)", "technique": "DHFR protein complementation", "matrix": "yeast", "setting": "single substitutions, most at no-binding floor", "reference": "wild-type JUN-FOS pair", "reading": "higher = stronger binding", "starting sequence": "JUN, bZIP domain (human); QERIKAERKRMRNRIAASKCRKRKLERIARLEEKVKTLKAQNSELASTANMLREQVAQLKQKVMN; partner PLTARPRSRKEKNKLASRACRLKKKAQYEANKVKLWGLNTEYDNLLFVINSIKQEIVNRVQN"}
{"Change": "E54H", "binding fitness": "-1.52 natural log"}
{"Change": "K36L", "binding fitness": "-1.49 natural log"}
{"Change": "T37G", "binding fitness": "-1.44 natural log"}
{"Change": "R53A", "binding fitness": "-1.44 natural log"}
{"Change": "Q55M", "binding fitness": "-1.32 natural log"}
{"Change": "E44V", "binding fitness": "-1.39 natural log"}
{"Change": "R53S", "binding fitness": "-1.45 natural log"}
{"Change": "L45T", "binding fitness": "-1.53 natural log"}
{"Change": "K34G", "binding fitness": "-1.47 natural log"}
{"Change": "L59W", "binding fitness": "-1.63 natural log"}
{"Change": "V35Y", "binding fitness": "-1.61 natural log"}
{"Change": "L59H", "binding fitness": "-1.16 natural log"}
{"Change": "E33H", "binding fitness": "-1.39 natural log"}
{"Change": "E54K", "binding fitness": "-1.44 natural log"}
{"Change": "T37M", "binding fitness": "-1.36 natural log"}
{"Change": "E33V", "binding fitness": "-1.52 natural log"}
{"Change": "V35T", "binding fitness": "-1.56 natural log"}
{"data": "Series 2", "target": "CCNE1, cyclin fold, Cln2 fusion (human)", "technique": "yeast growth competition, sequencing", "matrix": "yeast", "setting": "weak parent motif", "reference": "not given", "reading": "higher = stronger binding", "starting sequence": "WEE1 docking peptide (human); HKTFRKLRLFDTP"}
{"Change": "F4M", "normalised enrichment score": 0.489}
{"Change": "D11H", "normalised enrichment score": -0.626}
{"Change": "T3Q", "normalised enrichment score": 0.06}
{"Change": "L7D", "normalised enrichment score": -0.519}
{"Change": "T3N", "normalised enrichment score": -0.76}
{"Change": "T3M", "normalised enrichment score": 0.404}
{"Change": "R5I", "normalised enrichment score": 1.24}
{"Change": "T12D", "normalised enrichment score": 1.42}
{"Change": "L9P", "normalised enrichment score": -0.0401}
{"Change": "D11V", "normalised enrichment score": 0.922}
{"Change": "K2Q", "normalised enrichment score": 0.838}
{"Change": "D11T", "normalised enrichment score": 0.925}
{"Change": "L7S", "normalised enrichment score": -0.757}
{"Change": "K6L", "normalised enrichment score": 0.138}
{"Change": "T3P", "normalised enrichment score": 0.853}
{"Change": "L9E", "normalised enrichment score": -1.54}
{"Change": "T12C", "normalised enrichment score": 0.616}
{"Change": "R8A", "normalised enrichment score": 0.693}
{"Change": "H1R", "normalised enrichment score": 0.44}
{"Change": "K2V", "normalised enrichment score": 0.638}
{"Change": "K6A", "normalised enrichment score": 0.54}
{"Change": "K6G", "normalised enrichment score": 1.22}
{"data": "Series 3", "target": "Prothrombin, mature alpha-thrombin (F2, Homo sapiens, UniProt P00734)", "technique": "aptamer microarray, sandwich", "molecule type": "DNA with 2'F-ANA", "matrix": "in vitro", "tested at": "200 nM", "setting": "whole 15-mer aptamer, many near background", "together with": "Cy3 exosite-II aptamer, 400 nM", "reading": "higher = stronger binding", "sequence": "GGTTGGTGTGGTTGG"}
{"Modification": "2'F-ANA at 5 7 13 14 15", "mean fluorescence intensity [a.u.]": 80.8}
{"Modification": "2'F-ANA at 3 6 9 11 12 14 15", "mean fluorescence intensity [a.u.]": 516}
{"Modification": "2'F-ANA at 3 4 6 7 13 14", "mean fluorescence intensity [a.u.]": 287}
{"Modification": "2'F-ANA at 2 3 4 5 6 9 10 11 12 13 15", "mean fluorescence intensity [a.u.]": 52.5}
{"Modification": "2'F-ANA at 1 2 3 4 5 6 7 11 12 15", "mean fluorescence intensity [a.u.]": 80.6}
{"Modification": "2'F-ANA at 3 5 6 9 10 12 13 14", "mean fluorescence intensity [a.u.]": 48.7}
{"Modification": "2'F-ANA at 3 5 6 8 10 12 13", "mean fluorescence intensity [a.u.]": 57.2}
{"Modification": "2'F-ANA at 1 4 6 7 9 11 12 13", "mean fluorescence intensity [a.u.]": 120}
{"Modification": "2'F-ANA at 1 4 5 6 8 9 10 13", "mean fluorescence intensity [a.u.]": 48.9}
{"Modification": "2'F-ANA at 3 5 6 7 9 12 13 14", "mean fluorescence intensity [a.u.]": 60.9}
{"Modification": "2'F-ANA at 1 4 7 8", "mean fluorescence intensity [a.u.]": 198}
{"Modification": "2'F-ANA at 1 2 3 4 5 7 10 12 13 14", "mean fluorescence intensity [a.u.]": 45.3}
{"Modification": "2'F-ANA at 1 3 5 7 9 10 11 13 15", "mean fluorescence intensity [a.u.]": 47.3}
{"Modification": "2'F-ANA at 2 6 7 8 11 13 14", "mean fluorescence intensity [a.u.]": 127}
{"Modification": "2'F-ANA at 4 5 6 7 9 11 12 13", "mean fluorescence intensity [a.u.]": 67.2}
{"Modification": "2'F-ANA at 3 4 7 9 10 13 15", "mean fluorescence intensity [a.u.]": 280}
{"data": "Series 4", "target": "RNA binding protein fox-1 homolog 2, RRM domain, GST-SBP tag (RBFOX2, Homo sapiens, UniProt O43251-10, residues 100-194)", "technique": "RNA Bind-n-Seq", "molecule type": "RNA", "matrix": "in vitro", "tested at": "365 nM", "setting": "natural RNA segment, single round, ends assumed", "reference": "no-protein control", "reading": "higher = stronger binding", "constant ends, left off below": "GGGAGUUCUACAGUCCGACGAUC … UGGAAUUCUCGGGUGCCAA", "Target sequence (chain)": "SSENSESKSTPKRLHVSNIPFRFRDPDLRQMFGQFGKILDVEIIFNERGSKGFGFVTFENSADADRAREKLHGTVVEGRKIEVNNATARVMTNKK"}
{"Sequence": "ACCCAUUAUAACAGAAUUUGUCAAAAGGAGUGUUUCUUGAGGAGGUAGCUUUUUUUUACCACACUACAGGACAUUACCUGUAGGCCCAGAAGACUACAGGCUGGUGUCCC", "RBNS enrichment (R)": 0.327}
{"Sequence": "GCCACCAAUUGUAGUGACCAGUUGCCUAAUGGUCACUUUCUGACUCCAGCCUUGCCAGCCUGACUCAGAUCCUCAUCUCUGGGCCUUUCUCCCUCCGAUGUUGGACUGCC", "RBNS enrichment (R)": 0.7}
{"Sequence": "AUUUUAUCCAAUACAUGUAAAUGAAUAAAAGCAUAAUCAAAAGGGCUUCAAUGUGCAAUUCCUUUCUGCUUCCAAAGGUAUGCCUGCUUUGCUUUUGACUCUAAGCAUAA", "RBNS enrichment (R)": 15.9}
{"Sequence": "CUUCUUCCUCAGUGGAGAUACCACACAUGAGUGGAGAGAUACGUUAGAUAGCUUUGGUAAAUAUCUUUAAUAGAGGUGACUAUUGAACUGUUGAAUCUUGCAUUUGCACA", "RBNS enrichment (R)": 0.796}
{"Sequence": "AGAGAGGUCCAACCCCGUGUGGCCAGGCAGUGGCCCCUCACUCUUGCUUAGUGUCCAUCUCAUUUCUUGAUCAAAGCCACUUUAGUGAGAAAUAGGUACCAGUCCUCAGG", "RBNS enrichment (R)": 0.251}
{"Sequence": "UUUACAGAAACAUUUUUUAAAUAAGGGAAAUAUUUUAUAUACCAGAUGGUUCACAAGUGAUGGCUCAUAGCUAGUUUUUUUUUUUCUUCUAAAAAAUGUCAGGUUUUUAA", "RBNS enrichment (R)": 0.801}
{"Sequence": "GACAUUGUCAAGGAAGAUAUACGUAGAGGAUCUUAACUGACUCACAGGAAGCACUUGUCCCCCCUGGCACGGAAUCCAGAGGGUUCCUCGUCCUUUACCAGUGUCAACCC", "RBNS enrichment (R)": 0.58}
{"Sequence": "UUGGCAGAGAUGGGGACUUGAGUGACCAUGUUGGGUUCCCUUCUUCUCCUUCUUGCAGGACACAAAUGAUAUCGCUUAGUCAUAAGUGUGGUAGACUGGAUCCUGACCAG", "RBNS enrichment (R)": 0.564}
{"data": "Series 5", "target": "PABPC1L2, full length, GST fusion (mouse, UniProt A0ABA7IW68)", "technique": "RNAcompete", "molecule type": "RNA", "matrix": "in vitro", "tested at": "20 nM", "setting": "7-mer, probes averaged, single round", "reference": "mean of 7-mers", "reading": "higher = stronger binding", "Target sequence (chain)": "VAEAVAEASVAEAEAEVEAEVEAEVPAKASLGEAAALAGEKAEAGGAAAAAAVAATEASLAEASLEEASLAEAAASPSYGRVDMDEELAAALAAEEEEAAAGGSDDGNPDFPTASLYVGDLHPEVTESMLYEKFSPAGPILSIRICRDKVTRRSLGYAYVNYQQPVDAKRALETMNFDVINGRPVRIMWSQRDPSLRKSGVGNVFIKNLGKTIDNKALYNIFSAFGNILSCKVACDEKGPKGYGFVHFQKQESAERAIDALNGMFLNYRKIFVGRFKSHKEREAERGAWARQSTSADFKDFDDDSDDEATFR"}
{"Sequence": "AUCUUAC", "7-mer Z-score": -0.146}
{"Sequence": "CCCGUCA", "7-mer Z-score": -0.296}
{"Sequence": "GAGCCGA", "7-mer Z-score": -0.275}
{"Sequence": "CCGUAAA", "7-mer Z-score": 1.2}
{"Sequence": "CAUGAUU", "7-mer Z-score": -0.0881}
{"Sequence": "UCCAAUU", "7-mer Z-score": -0.121}
{"Sequence": "CCCACGU", "7-mer Z-score": -0.262}
{"Sequence": "UGCCGGG", "7-mer Z-score": -0.0772}
{"Sequence": "ACAGCGG", "7-mer Z-score": 0.149}
{"Sequence": "UCUUAAG", "7-mer Z-score": -0.298}
{"Sequence": "CUUUAUG", "7-mer Z-score": -0.0283}
{"Sequence": "AGCGGUA", "7-mer Z-score": 0.1}
{"Sequence": "ACCGACU", "7-mer Z-score": -0.121}
{"Sequence": "UUAAAGU", "7-mer Z-score": 0.432}
{"Sequence": "CUCCUGC", "7-mer Z-score": -0.354}
{"Sequence": "CUUCUAG", "7-mer Z-score": -0.3}
{"Sequence": "CAGUCAC", "7-mer Z-score": 0.0642}
{"Sequence": "GGGAUGC", "7-mer Z-score": 0.204}
{"Sequence": "AGCAGAU", "7-mer Z-score": 0.0569}
{"Sequence": "CGUACAU", "7-mer Z-score": -0.115}
{"Sequence": "CACCCGU", "7-mer Z-score": -0.226}
{"Sequence": "CAGGGGU", "7-mer Z-score": 0.122}
{"Sequence": "UCCAUCU", "7-mer Z-score": -0.338}
{"Sequence": "ACGUGCC", "7-mer Z-score": -0.142}
{"Sequence": "CCGAUCU", "7-mer Z-score": -0.206}
{"data": "Other studies, line by line"}
{"Molecule": "PhoQ, residues 284 288 289 292 302 303 GNNTDL", "target": "PhoP, residues 12 14 15 18 19 LHATL (Escherichia coli, UniProt P23836)", "test": "Sort-seq, item: YFP reporter", "test system": "E. coli", "conditions": "PhoQ-PhoP variant library, together with: 10 µM Mg2+", "scale": "reference: high Mg2+ state, higher = stronger signaling", "endpoint": "fold induction", "value": 2.53}
{"note": "Some of these lines once more (series 2):"}
{"Change": "D11V", "normalised enrichment score": 0.922}
{"Change": "D11H", "normalised enrichment score": -0.626}
{"Change": "T3N", "normalised enrichment score": -0.76}
{"Change": "H1R", "normalised enrichment score": 0.44}
{"Change": "T12C", "normalised enrichment score": 0.616}
{"Change": "R8A", "normalised enrichment score": 0.693}
{"Change": "D11T", "normalised enrichment score": 0.925}
{"Change": "T3P", "normalised enrichment score": 0.853}
